{"data": "Results pooled from the literature", "note": "Each numbered part is a random draw from the data of one study; scales do not carry over between parts."}
{"data": "Series 1", "target": "Interferon regulatory factor 5, full length, phosphomimetic (IRF5, Homo sapiens, UniProt Q13568-2, residues 1-514, K96S/S451D/S453D/S456D/S462D)", "technique": "protein-binding microarray", "form": "double-stranded DNA, one strand shown", "matrix": "in vitro", "tested at": "250 nM", "notes": "60-bp whole probe", "with": "salmon DNA 0.4 mg/ml", "baseline": "random background probes", "direction": "higher = stronger binding", "shared flanks, not repeated": "GCCTAGCAC … GTGCTAGGTCTTGATTCGCTTGACGCTGCTG"}
{"Sequence": "GACGAACTGAGTATCAAGAC", "log fluorescence": "0.0777 z-score"}
{"Sequence": "GAGGATATCAGACTGGAGAC", "log fluorescence": "-0.28 z-score"}
{"Sequence": "TACGGACTGCTACTGCTGAC", "log fluorescence": "-0.587 z-score"}
{"Sequence": "TTAGATATCCTACTGCTTTA", "log fluorescence": "0.248 z-score"}
{"Sequence": "AACGGTATCCTACTGCTGAC", "log fluorescence": "0.0829 z-score"}
{"data": "Series 2", "target": "Sal-like protein 4, full length isoform B (SALL4, Homo sapiens, UniProt Q9UJQ4-2, residues 1-616)", "technique": "universal PBM", "form": "double-stranded DNA, one strand shown", "matrix": "in vitro", "tested at": "not given", "notes": "8-mer, flanks averaged, mean of replicates", "direction": "higher = stronger binding", "Residues (chain)": "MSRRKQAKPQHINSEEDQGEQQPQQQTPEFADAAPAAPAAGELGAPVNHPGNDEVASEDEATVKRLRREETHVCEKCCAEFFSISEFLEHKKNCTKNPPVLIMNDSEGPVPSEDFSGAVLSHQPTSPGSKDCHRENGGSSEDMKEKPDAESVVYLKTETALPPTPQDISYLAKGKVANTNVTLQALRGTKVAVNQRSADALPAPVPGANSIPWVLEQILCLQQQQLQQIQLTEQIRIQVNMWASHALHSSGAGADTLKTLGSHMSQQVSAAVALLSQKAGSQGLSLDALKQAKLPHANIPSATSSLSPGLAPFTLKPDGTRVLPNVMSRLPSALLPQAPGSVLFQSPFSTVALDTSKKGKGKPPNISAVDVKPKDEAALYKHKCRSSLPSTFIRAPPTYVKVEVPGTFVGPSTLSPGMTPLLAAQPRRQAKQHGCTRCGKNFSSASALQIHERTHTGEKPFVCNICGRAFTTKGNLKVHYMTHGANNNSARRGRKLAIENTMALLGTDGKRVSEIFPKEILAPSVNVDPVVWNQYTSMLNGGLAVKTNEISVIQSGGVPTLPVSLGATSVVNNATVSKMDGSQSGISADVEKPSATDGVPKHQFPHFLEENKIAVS"}
{"Sequence": "AGTGGCTA", "E-score": -0.0561}
{"Sequence": "CGAGCGAG", "E-score": -0.00077}
{"Sequence": "CGAAAATC", "E-score": 0.161}
{"Sequence": "CCCTAACA", "E-score": 0.0922}
{"Sequence": "CCTTGTAA", "E-score": 0.301}
{"data": "Series 3", "target": "Histone acetyltransferase KAT6A, winged helix 2, GST fusion (KAT6A, Homo sapiens, UniProt Q92794, residues 85-181)", "technique": "protein binding microarray", "form": "double-stranded DNA, one strand shown", "matrix": "in vitro", "tested at": "not given", "notes": "8-mer, flanks averaged, mean of 2 arrays, mostly near background", "baseline": "not given", "direction": "higher = stronger binding", "Construct (chain)": "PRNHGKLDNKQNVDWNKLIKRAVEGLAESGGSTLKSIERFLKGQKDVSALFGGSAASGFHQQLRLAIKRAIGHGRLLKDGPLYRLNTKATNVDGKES"}
{"Sequence": "GTGACCTA", "E-score": -0.00647}
{"Sequence": "AAGTGATA", "E-score": -0.2}
{"Sequence": "CACCGTGA", "E-score": -0.0458}
{"Sequence": "GATGAGTA", "E-score": -0.0482}
{"Sequence": "CCCGGTGA", "E-score": 0.0806}
{"Sequence": "AAATGCGA", "E-score": 0.155}
{"Sequence": "AATCTGCC", "E-score": -0.0279}
{"data": "Further values, each from its own experiment"}
{"Substance": "PhoQ, residues 284 288 289 292 302 303 QWQEDG", "target": "PhoP, residues 12 14 15 18 19 SEGLL (Escherichia coli, UniProt P23836)", "assay": "Sort-seq, refers to: YFP reporter", "system": "E. coli", "conditions": "PhoQ-PhoP variant library, with: 10 µM Mg2+", "scale": "baseline: high Mg2+ state, higher = stronger signaling", "endpoint": "fold induction", "result": 4.76}
{"note": "Some of these lines once more (series 2):"}
{"Sequence": "CCCTAACA", "E-score": 0.0922}
{"Sequence": "CCTTGTAA", "E-score": 0.301}
